Measured values pooled from the literature.
A part holds a random share of what one study measured.

Block 1
Target: RNA binding protein fox-1 homolog 2, RRM domain, GST-SBP tag (RBFOX2, Homo sapiens, UniProt O43251-10, residues 100-194)
Method: RNA Bind-n-Seq
Form: RNA
Medium: in vitro
Concentration: 365 nM
Setting: natural RNA segment, single round, ends assumed
Baseline: no-protein control
Direction: higher = stronger binding
Quantity: RBNS enrichment (R)
All sequences stand within: GGGAGUUCUACAGUCCGACGAUC … UGGAAUUCUCGGGUGCCAA
UCCCAUCCCCCGUCUGUCCACUAACUGUACCGCACCGGCCAUUAAAAGAUGAAGGCAGACCGCUGCACCGCCGCCUGCAAGCAGAGUUUGUGCGUGGACGGGGGCUGGGA: 0.369
ACUUCCAACCAGCCGCUGUGAGGAUUUAGUGAGCUAACGCAUGUAAGCAUUUAGCAAGGUGCCUGGCACAUAGUAAGCACUCAAUAAAUGGUAGUUUUUUUGUUCUUUUA: 13.4
UUUAUUUUGAUUACCGAGGGUAUUUGGGGUGGGGUUGUUUUUUGAGAUGUGUAAUUCUUUUAUGGAGUUUUUAAAAAGAAUUUUCAUAUUGUUUUUCUAACAUGGCUUCA: 0.738
ACUUUUCCAAAGUGCCUUAAAAGAAGGGAGACAGACUCAUUGAGUGUGUUGCUUCUUUCUCUCCUAAAGCAAACCUCUGCCUUUUCUCUAUGCUGUUCGUGUUGGGUUUU: 0.455
GACUGUCUUCUGGGCCCUUCCAAGCCCAUCUGUGGAGUCGCCUCCCUCCUUCCCCCCACCCCCGUGUGAAGUGUGUUAUCACCAGCAGACACUGCCGGACUCCUGCCCAC: 0.437
AUGAACGAUAGAUCACAUCAGAACUCCUGUGGGGAGGAAACCUUAUAAAUUAAACACAUGGCCCCCUUAGAGACCACAGGUGAUGUCUGUCUCCAUCCUUCCCUCUCCUU: 1.46
UGAUUUUAUAUAAAGAUUUGUGGGGAAAUAUCUUUAUAUUAAAAGCAGGUUAUUGGAAUAGAAUCCAAAAUCAUUUUCCAGCCAAAACAUCCAUUCGAAAUCUGUAUCCC: 2.12
GGUAGAGUUUCUUUUUUUCUUUUUGUAAUCAUGAGUUCCCUUGACUCCCCUCUUGAUUUUCUAUCUUGAUUUAUCCUGCAGGCAUGUCCUACCUUUUGACAUUGUGACUU: 1.69
GGCAGGACCUGUGGAGCCAUUAACGGCGGGGGUCUUAGCGAGAACCACUUCAUUAGAGCACUUGCUGCAGAGGCAGAGAGCAGAGCCGCCAGGAUAAAUUCUGCUUCCAC: 0.403
GCUGGGAUCGAUUCCUAGCUUUACCACUAACUAGCUGUGUGGCCUUGAGUAAAUCCCGUUACCUCUCUGAGCCUCGGUUACCCUGUCUGUAAAAAGGGAGGUGAGAAUAC: 0.425

Block 2
Target: RING finger protein unkempt homolog, zinc fingers 1-6, GST-SBP tag (UNK, Homo sapiens, UniProt Q9C0B0, residues 30-357)
Method: RNA Bind-n-Seq
Form: RNA
Medium: in vitro
Concentration: not given
Setting: RNA with constant flanks, human and mouse sites, ends assumed
Baseline: input RNA pool
Direction: higher = stronger binding
Quantity: bound/input enrichment
All sequences stand within: GGGAGUUCUACAGUCCGACGAUC … CAACAGAGGAUUGAGCAUCA
Residues (chain): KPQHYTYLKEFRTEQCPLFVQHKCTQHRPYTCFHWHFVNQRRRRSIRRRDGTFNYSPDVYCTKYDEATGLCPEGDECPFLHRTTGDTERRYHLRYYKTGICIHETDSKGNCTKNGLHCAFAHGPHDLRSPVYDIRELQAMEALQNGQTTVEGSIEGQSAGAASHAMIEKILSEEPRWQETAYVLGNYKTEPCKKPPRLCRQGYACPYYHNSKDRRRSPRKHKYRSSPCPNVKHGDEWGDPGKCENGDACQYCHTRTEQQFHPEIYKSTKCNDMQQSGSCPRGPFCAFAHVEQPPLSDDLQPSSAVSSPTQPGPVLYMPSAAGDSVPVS
AGUCCAAGCACAGUUGGAGUGACCAAGAUGACUCUGGGAACACCUCCCACUUUGCCAAACUUCAAUGCUUUGAGUGUUCCUCCUGCUGGUGCAAAGCAGACCCAACAAAGACCCACAGAU: 0.0707 ratio
AUACAUGGCGUAAUUAACUCAGCUGUUCUAGCUGCAGUACUGCUGCAGUGAUCCACCCACAUUUAGGAUGUGCUGACAGAUAAGCUCUUUGCCUACAAUACAUGGAUAAUUAGUGCUAUA: 0.725 ratio
AUAACUUCUAAGGAUAAUUUAGAAGAUGAGACUGAAGAUGAUGACCUAUUUGAAACUGAGUUUAGACAAUAUAAAAGAACAUAUUACAUGACGAAGAUGGGGGUUGACGUAGUAUCUGAU: 1.7 ratio
ACCGCCCGGGUCGUGGAGCCAGGAGCGACGUCACCGCCAUGGCGGGCAUCAAAGCUUUAAUUAGUUUGUCCUUUGGAGGAGCGAUCGGGCUGAUGUUCCUGAUGCUUGGAUGUGCCCUUC: 0.11 ratio
CCCUCCCACCUCUUCCUGUGCAACAAAAUCAGAUACCUGGACUUGUCCUAUAACGACAUCCGCUUCAUCCCGCCCGAAAUCGGAGUUCUGCAAAGUUUACAGUAUUUUUCCAUCACUUGU: 0.312 ratio
CCUGCCUAAGGCAAAGAAAUAUAAGACAAGACUAUGAUAUCAAUGAAUGUGGGUUAAGUAAUAGAUUUCCAGCUAAAUUGGUCUAAAAAAGAAUAUUAAGUGUGGACAGACCUAUUUCAA: 0.25 ratio

Block 3
Target: Prothrombin, mature alpha-thrombin (F2, Homo sapiens, UniProt P00734)
Method: aptamer microarray, sandwich
Form: DNA with 2'F-ANA
Medium: in vitro
Concentration: 200 nM
Setting: whole 15-mer aptamer, many near background
Together with: Cy3 exosite-II aptamer, 400 nM
Direction: higher = stronger binding
Quantity: mean fluorescence intensity
Sequence: GGTTGGTGTGGTTGG
2'F-ANA at 4 6 8 9 10 11 13 15: 58.3 a.u.
2'F-ANA at 4 5 10 13 14 15: 45.5 a.u.
2'F-ANA at 1 2 4 6 8 9 11 14: 52.4 a.u.
2'F-ANA at 1 3 5 8 9 10 11 13 15: 48 a.u.
2'F-ANA at 1 2 4 5 6 7 8 10 13 14 15: 47 a.u.
2'F-ANA at 3 5 6 10 11 13 14: 48.8 a.u.
2'F-ANA at 1 4 5 6 9 11 12 13 15: 63.4 a.u.
2'F-ANA at 1 2 7 8 11 12 13 14 15: 72.2 a.u.

Further values, each from its own experiment
PhoQ, residues 284 288 289 292 302 303 WVSSAF  fold induction (PhoP, residues 12 14 15 18 19 AYFRS (Escherichia coli, UniProt P23836); Sort-seq, measured: YFP reporter; E. coli; PhoQ-PhoP variant library, together with: 10 µM Mg2+; baseline: high Mg2+ state, higher = stronger signaling): 10.8

For quick reference, copied from above (block 1):
UGAUUUUAUAUAAAGAUUUGUGGGGAAAUAUCUUUAUAUUAAAAGCAGGUUAUUGGAAUAGAAUCCAAAAUCAUUUUCCAGCCAAAACAUCCAUUCGAAAUCUGUAUCCC: 2.12
GGUAGAGUUUCUUUUUUUCUUUUUGUAAUCAUGAGUUCCCUUGACUCCCCUCUUGAUUUUCUAUCUUGAUUUAUCCUGCAGGCAUGUCCUACCUUUUGACAUUGUGACUU: 1.69
